{"data": "Published values gathered from unrelated publications", "target": "Mitogen-activated protein kinase 11 (MAPK11, Homo sapiens, UniProt Q15759)", "sequence of UniProt Q15759 (whole entry, looked up)": "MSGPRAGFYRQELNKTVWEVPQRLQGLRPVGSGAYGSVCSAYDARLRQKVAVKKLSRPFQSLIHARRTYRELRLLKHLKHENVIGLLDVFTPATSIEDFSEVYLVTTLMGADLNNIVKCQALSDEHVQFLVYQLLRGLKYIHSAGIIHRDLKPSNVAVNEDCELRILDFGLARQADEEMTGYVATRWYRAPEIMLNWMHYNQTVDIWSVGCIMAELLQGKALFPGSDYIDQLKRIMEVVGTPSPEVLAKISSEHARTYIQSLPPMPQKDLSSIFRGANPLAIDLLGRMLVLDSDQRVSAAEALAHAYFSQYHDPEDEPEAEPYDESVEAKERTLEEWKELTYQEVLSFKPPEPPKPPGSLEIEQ"}
{"Structure (SMILES)": "c1cnc2ccc(Nc3nc(NC4CC4)c4nc[nH]c4n3)cc2c1", "assay": "kinase activity, inhibitor, SelectScreen kinase profiling", "setting": "1 µM", "scale": "reference: control", "endpoint": "remaining activity", "result": "92%"}
{"Structure (SMILES)": "Cc1cc(Nc2cc(N3CCN(C)CC3)nc(Sc3ccc(NC(=O)C4CC4)cc3)n2)[nH]n1", "assay": "kinase activity, KinaseProfiler", "setting": "0.03 µM, species human", "scale": "reference: control", "endpoint": "remaining activity", "result": "93%"}
{"Structure (SMILES)": "COc1cc(N2CCN(C)CC2)ccc1Nc1nc(N)n(C(=S)NCc2c(Cl)cccc2Cl)n1", "assay": "enzyme activity", "setting": "10 µM", "scale": "reference: control", "endpoint": "remaining activity", "result": "3.4%"}
{"Structure (SMILES)": "COc1cc(F)ccc1-c1ncnc(Nc2cccc(C[S@](C)(=N)=O)c2)n1", "assay": "kinase activity", "setting": "10 µM, together with: 10 µM ATP", "endpoint": "remaining activity", "result": "105%"}
{"Structure (SMILES)": "Cc1cc(C)nc(NC(=S)N2CCN(Cc3ccc(C(F)(F)F)cc3)CC2)c1", "assay": "inhibitor, ADP-Glo", "setting": "concentration not given", "endpoint": "kinase activity", "result": "no effect"}
{"Structure (SMILES)": "[2H]c1cc(C)c(NC(=O)c2cnc(Nc3cc(N4CCC(O)CC4)nc(C)n3)s2)c(Cl)c1", "setting": "0.001 µM", "endpoint": "inhibition", "result": "< 50%"}
{"Structure (SMILES)": "COc1cc(-c2cncc3c2CN(C)Cc2cc(N4CCNCC4)ccc2-3)cc(OC)c1OC", "assay": "kinase activity", "setting": "1 µM, human enzyme, together with: ATP 10 µM", "scale": "reference: DMSO control", "endpoint": "remaining activity", "result": "92%"}
{"Structure (SMILES)": "[2H]c1cc(C)c(NC(=O)c2cnc(Nc3cc(N4CCCCC4)nc(C)n3)s2)c(Cl)c1", "setting": "0.01 µM", "endpoint": "inhibition", "result": "< 30%"}
{"Structure (SMILES)": "O=C1NC(=O)/C(=C/c2ccc(-c3ccc(F)cc3O)o2)S1", "assay": "enzyme activity", "setting": "10 µM", "endpoint": "remaining activity", "result": "74%"}
{"note": "For quick reference, copied from above:"}
{"Structure (SMILES)": "c1cnc2ccc(Nc3nc(NC4CC4)c4nc[nH]c4n3)cc2c1", "assay": "kinase activity, inhibitor, SelectScreen kinase profiling", "setting": "1 µM", "scale": "reference: control", "endpoint": "remaining activity", "result": "92%"}
